# Assay results of several laboratories.
# Compare with care: the assays were run in different laboratories. “And” joins repeats or separate records; there may be more than shown. Numbers after ± are the reported error. Bridges are numbered along the chain shown (N, C = ends). Where no end group is shown, it is not given here.
# T1: B2m/H2-D1 single-chain trimer MHC part (Mus musculus); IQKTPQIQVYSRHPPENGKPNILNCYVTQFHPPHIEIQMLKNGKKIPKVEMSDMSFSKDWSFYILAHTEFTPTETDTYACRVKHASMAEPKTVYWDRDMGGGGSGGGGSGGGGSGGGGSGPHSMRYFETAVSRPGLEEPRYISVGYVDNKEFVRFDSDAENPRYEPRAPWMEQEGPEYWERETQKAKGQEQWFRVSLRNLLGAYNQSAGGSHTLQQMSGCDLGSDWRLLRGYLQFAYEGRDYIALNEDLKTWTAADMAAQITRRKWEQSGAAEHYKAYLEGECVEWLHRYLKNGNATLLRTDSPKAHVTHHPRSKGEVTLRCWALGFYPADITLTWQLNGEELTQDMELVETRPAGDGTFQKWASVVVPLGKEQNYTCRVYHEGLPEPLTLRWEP
# B1: enzyme S146A (Schizosaccharomyces pombe, UniProt Q9Y7P0); chain MFTGLVEAIGVVKDVQGTIDNGFAMKIEAPQILDDCHTGDSIAVNGTCLTVTDFDRYHFTVGIAPESLRLTNLGQCKAGDPVNLERAVLSSTRMGGHFVQGHVDTVAEIVEKKQDGEAIDFTFRPRDPFVLKYIVYKGYIALDGTALTITHVDDSTFSIMMISYTQSKVIMAKKNVGDLVNVEVDQIGKYTEKLVEAHIADWIKKTQA
# B2: UGT1A9 (Homo sapiens, UniProt O60656); chain GKLLVVPMDGSHWFTMRSVVEKLILRGHEVVVVMPEVSWQLGRSLNCTVKTYSTSYTLEDLDREFKAFAHAQWKAQVRSIYSLLMGSYNDIFDLFFSNCRSLFKDKKLVEYLKESSFDAVFLDPFDNCGLIVAKYFSLPSVVFARGILCHYLEEGAQCPAPLSYVPRILLGFSDAMTFKERVRNHIMHLEEHLLCHRFFKNALEIASEILQTPVTEYDLYSHTSIWLLRTDFVLDYPKPVMPNMIFIGGINCHQGKPLPMEFEAYINASGEHGIVVFSLGSMVSEIPEKKAMAIADALGKIPQTVLWRYTGTRPSNLANNTILVKWLPQNDLLGHPMTRAFITHAGSHGVYESICNGVPMVMMPLFGDQMDNAKRMETKGAGVTLNVLEMTSEDLENALKAVINDKSYKENIMRLSSLHKDRPVEPLDLAVFWVEFVMRHKGAPHLRPAAHDLTWYQYHSLDVIGFLLAVVLTVAFITFKCCAYGYRKCLGKKGRVKKAHKSKTH
# B3: enzyme (Arabidopsis thaliana, UniProt Q9LTH2); chain MEEKQVKETRIVLVPVPAQGHVTPMMQLGKALHSKGFSITVVLTQSNRVSSSKDFSDFHFLTIPGSLTESDLQNLGPQKFVLKLNQICEASFKQCIGQLLHEQCNNDIACVVYDEYMYFSHAAVKEFQLPSVVFSTTSATAFVCRSVLSRVNAESFLIDMKDPETQDKVFPGLHPLRYKDLPTSVFGPIESTLKVYSETVNTRTASAVIINSASCLESSSLARLQQQLQVPVYPIGPLHITASAPSSLLEEDRSCVEWLNKQKSNSVIYISLGSLALMDTKDMLEMAWGLSNSNQPFLWVVRPGSIPGSEWTESLPEEFNRLVSERGYIVKWAPQMEVLRHPAVGGFWSHCGWNSTVESIGEGVPMICRPFTGDQKVNARYLERVWRIGVQLEGDLDKETVERAVEWLLVDEEGAEMRKRAIDLKEKIETSVRSGGSSCSSLDDFVNSM
# B4: LYS1 C205S/K99M (Saccharomyces cerevisiae, UniProt P38998); chain MAAVTLHLRAETKPLEARAALTPTTVKKLIAKGFKIYVEDSPQSTFNINEYRQAGAIIVPAGSWKTAPRDRIIIGLKEMPETDTFPLVHEHIQFAHCYMDQAGWQNVLMRFIKGHGTLYDLEFLENDQGRRVAAFGFYAGFAGAALGVRDWAFKQTHSDDEDLPAVSPYPNEKALVKDVTKDYKEALATGARKPTVLIIGALGRSGSGAIDLLHKVGIPDANILKWDIKETSRGGPFDEIPQADIFINCIYLSKPIAPFTNMEKLNNPNRRLRTVVDVSADTTNPHNPIPIYTVATVFNKPTVLVPTTAGPKLSVISIDHLPSLLPREASEFFSHDLLPSLELLPQRKTAPVWVRAKKLFDRHCARVKRSSRL
Substance,target or system,test,system,conditions,how to read,quantity,result
GAGUUGAGUUGAGUUGAGUUGAGUUGAGUUGAGUUGAGUUGAGUUGAGUUGAGUU (ssRNA; single strand),"mtrB full length assumed E36A (Bacillus subtilis, UniProt P19466)",filter binding,,with: L-tryptophan 1 mM,,Kd,407 ± 42 nM
TAPDNLGYM (Tyrp1 peptide residues 455-463 A9M),"T1, B2m/H2-D1 single-chain trimer MHC part (Mus musculus)",differential scanning fluorimetry,peptide,,,Tm,45.5 °C
COc1cccc2c1C(=O)c1c(O)c3c(c(O)c1C2=O)C[C@@](O)(C(=O)CO)C[C@@H]3O[C@H]1C[C@H](NC(=O)[C@@H]2CCCN2C(=O)CN)[C@H](O)[C@H](C)O1,,,"mouse, E0771 tumour-bearing, heart","intravenous, 92 µmol/kg PhAc-ALGP-Dox",,Tmax,5 min
cholecystokinin octapeptide,rat pancreatic acini,,,"0.03 nM, 15 min, with: 20 µM PKCθ pseudosubstrate inhibitor for 2 h",baseline: total,amylase secretion,5.8 ± 0.9%
epidermal growth factor,MDCK monolayer,,,"120 min, pH 7.4, 1% BSA",baseline: added tracer,basal-to-apical transport,3.2%
B1 (enzyme S146A),Cc1nc2c(=O)[nH]c(=O)nc-2n(C[C@H](O)[C@H](O)[C@H](O)CO)c1C,steady-state kinetics,,"pH 7.2, 37 °C, apparent",,Vmax,0.183 µmol/min/mg
"PRL (Homo sapiens, UniProt P01236)",,"NMR, refers to: His195",,"35 °C, numbering of the source",,pKa,5.91
B2 (UGT1A9),COc1ccc(-c2oc3cc(O)ccc3c(=O)c2O)cc1OC,steady-state kinetics,,"pH 7.4, 37 °C",,Km,1.16 µM and 1.03 µM
CPSSSREKC (disulfide 1-9 (inferred)) (disulfide),CuFi-1,flow cytometry,nanoparticles after CF sputum permeation,"2 h, 37 °C",baseline: unmodified carboxylated nanoparticles,cell uptake,2.6 fold
Insulin human,,ELISA,"rat, ventral cortex","intranasal, 20 µg per nostril, 60 min",,concentration,18.4 ± 8 pg/mg tissue
CC(C)[C@H](NC(=O)[C@@H]1CCCN1C(=O)[C@H](CCCNC(=N)N)NC(=O)[C@H](CS)NC(=O)[C@H](Cc1c[nH]c2ccccc12)NC(=O)[C@H](CCCNC(=N)N)NC(=O)[C@@H](Cc1ccccc1)NC(=O)[C@H](Cc1c[nH]cn1)NC(=O)[C@H](CCC(=O)O)NC(=O)[C@H](CS)NC(=O)[C@H](CS)NC(=O)[C@H](CCCCN)NC(=O)[C@@H]1CC(=O)N[C@@H](CCCNC(=N)N)C(=O)N[C@@H](C)C(=O)N[C@@H](CC(=O)O)C(=O)N[C@H](Cc2ccc(O)cc2)C(=O)N1)C(N)=O [technetium-99m labelled],,,"C57 mice, skin","intravenous, 0.037 MBq, 0.5 h",,tissue uptake,4.71 ± 0.49 %ID/g
B3 (enzyme),O=c1ccn([C@@H]2O[C@H](CO[P@@](=O)(O)O[P@@](=O)(O)O[C@H]3O[C@H](CO)[C@@H](O)[C@H](O)[C@H]3O)[C@@H](O)[C@H]2O)c(=O)[nH]1,steady-state kinetics,,"pH 7.5, 25 °C",,kcat,0.0107 s⁻¹
B4 (LYS1 C205S/K99M),NCCCC[C@H](N)C(=O)O,steady-state kinetics,,"pH 7.2, 25 °C, with: NADH and α-Kg",,kcat,68 ± 4 s⁻¹
